Assay results pooled from the literature.
Numbered parts are unrelated; each lists some results of a single study.

Block 1 — method: RNA Bind-n-Seq; form: RNA; medium: in vitro; tested at: 20 nM; setting: 6-mer, flanks averaged, single round; together with: 150 mM KCl; baseline: input library; reading: higher = stronger binding
Target: TAR DNA-binding protein 43, full length, His tag (TARDBP, Homo sapiens, UniProt Q13148, residues 1-414)
`AUGCUU`: “6-mer enrichment (R)” 0.653.
`CCGUGG`: “6-mer enrichment (R)” 1.46.
`AUACUU`: “6-mer enrichment (R)” 0.574.
Under “6-mer enrichment (R)”, `GCUGGC` is recorded as 1.38.
`CGGUUC` — result for “6-mer enrichment (R)”: 0.689.
`UGGUCG`: “6-mer enrichment (R)” 1.23.
`AAAUUA` — result for “6-mer enrichment (R)”: 0.643.
For `AGCACA`, “6-mer enrichment (R)” read 0.717.

Block 2 — method: universal PBM; form: double-stranded DNA, one strand shown; medium: in vitro; tested at: 600 nM; reading: higher = stronger binding
Target: Sal-like protein 4, full length isoform A (SALL4, Homo sapiens, UniProt Q9UJQ4, residues 1-1053)
UniProt Q9UJQ4, sequence (whole entry, looked up): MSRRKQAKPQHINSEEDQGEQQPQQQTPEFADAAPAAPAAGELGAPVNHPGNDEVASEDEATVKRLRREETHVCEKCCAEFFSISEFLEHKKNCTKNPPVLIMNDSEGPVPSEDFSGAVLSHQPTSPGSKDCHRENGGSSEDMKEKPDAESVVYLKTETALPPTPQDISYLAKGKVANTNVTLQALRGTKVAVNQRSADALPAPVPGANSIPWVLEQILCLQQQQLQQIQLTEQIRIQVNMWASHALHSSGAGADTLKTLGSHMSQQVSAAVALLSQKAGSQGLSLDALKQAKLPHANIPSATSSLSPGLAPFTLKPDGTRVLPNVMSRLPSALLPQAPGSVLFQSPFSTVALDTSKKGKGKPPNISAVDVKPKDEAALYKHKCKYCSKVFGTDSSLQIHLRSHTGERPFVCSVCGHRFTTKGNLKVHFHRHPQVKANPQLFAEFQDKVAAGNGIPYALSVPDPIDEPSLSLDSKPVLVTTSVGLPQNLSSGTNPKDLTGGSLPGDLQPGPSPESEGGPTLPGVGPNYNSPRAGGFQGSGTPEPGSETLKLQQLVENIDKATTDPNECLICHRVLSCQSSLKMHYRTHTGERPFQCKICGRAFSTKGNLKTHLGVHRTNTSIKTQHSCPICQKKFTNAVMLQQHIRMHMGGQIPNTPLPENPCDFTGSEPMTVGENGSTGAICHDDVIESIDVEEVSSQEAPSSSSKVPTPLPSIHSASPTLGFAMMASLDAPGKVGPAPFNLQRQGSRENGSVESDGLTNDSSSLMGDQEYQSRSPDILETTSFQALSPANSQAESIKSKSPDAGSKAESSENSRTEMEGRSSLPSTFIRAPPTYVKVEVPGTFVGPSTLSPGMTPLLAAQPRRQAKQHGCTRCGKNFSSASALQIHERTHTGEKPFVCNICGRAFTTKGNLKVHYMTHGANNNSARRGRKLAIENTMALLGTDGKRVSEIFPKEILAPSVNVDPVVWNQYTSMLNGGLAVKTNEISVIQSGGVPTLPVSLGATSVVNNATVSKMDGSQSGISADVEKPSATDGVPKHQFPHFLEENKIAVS
Setting: 8-mer, flanks averaged, mean of replicates
With `GCGCAACA` the E-score was 0.000115.
With `CATCCGTC` the E-score was -0.00419.
`CCAGTTCC` has an E-score of -0.241.
`AAGAATTC` has an E-score of -0.0059.
The E-score of `AACTTCAG` is reported as 0.0774.
`AGTGTTCC` has an E-score of -0.00538.
For `CTCGCAGC`, the E-score was -0.107.
For `GACGCATC`, the E-score was -0.0463.

Block 3 — method: DNA-protein interaction ELISA; form: double-stranded DNA, one strand shown; medium: in vitro, bacterial lysate; tested at: not given; setting: whole dsDNA probe, crude lysate protein; baseline: highest signal in screen; reading: higher = stronger binding
Target: Probable WRKY transcription factor 50, DNA-binding domain (WRKY50, Arabidopsis thaliana, UniProt Q8VWQ5, residues 99-173)
Construct (chain): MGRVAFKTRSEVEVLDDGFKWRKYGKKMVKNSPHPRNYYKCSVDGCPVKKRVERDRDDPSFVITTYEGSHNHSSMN
`AAAAAATCATTTTATTTTGCCTTTCTAAAA` has a relative absorbance of 14.8 % of maximum.
With `AAAAAAGCATATCTTCAGAACTTGCCAAAA` the relative absorbance was 10.1 % of maximum.
`AAAAAAGCTCCCGTCTCTTAGTTCTAAAAA` gave a relative absorbance of 12.5 % of maximum.
The relative absorbance of `AAAAAATCCACGACTCAGCAGCTCTTAAAA` is reported as 19.9 % of maximum.
`AAAAAAGGGCGAGCGCTGGATCCACAAAA` gave a relative absorbance of 19 % of maximum.
The relative absorbance of `AAAAAATCGTAAATGCCCATAGCCGTAAAA` is reported as 14.9 % of maximum.
`AAAAAATTCCGGCTTGACGCTGCATAAAAA` has a relative absorbance of 29.6 % of maximum.
The relative absorbance of `AAAAAAAAGGACATTTTTTCTTTTTGAAAA` is reported as 44.1 % of maximum.

Other studies, line by line
For c1cc2ccn(-c3ccc4ccnc(N5CCOCC5)c4c3)c2cn1, the remaining compound was 0.723% (human, microsomes or S9; 2 µM, 0.5 h).

Repeated from above (block 3):
`AAAAAATCATTTTATTTTGCCTTTCTAAAA` has a relative absorbance of 14.8 % of maximum.
With `AAAAAAGCATATCTTCAGAACTTGCCAAAA` the relative absorbance was 10.1 % of maximum.
`AAAAAAGCTCCCGTCTCTTAGTTCTAAAAA` gave a relative absorbance of 12.5 % of maximum.
